Measured values from different studies.
Compare with care: the assays were run in different laboratories.

SMILES | test | test system | conditions | measurement | value
O=C1Nc2cc3[nH]nc(-c4ccncc4)c3cc2CN1Cc1ccccc1 | CTCAE v4.03 | human, relapsed or refractory advanced solid tumours | intravenous, 3.6 mg/kg | patients with QTc prolongation | 0%
CN[C@@H](C)C(=O)N[C@H]1CN(S(=O)(=O)c2cccc(S(=O)(=O)N3CC[C@H]4CC[C@@H](C(=O)NC(c5ccccc5)c5ccccc5)N4C(=O)[C@@H](NC(=O)[C@H](C)NC)C3)c2)CC[C@H]2CC[C@@H](C(=O)NC(c3ccccc3)c3ccccc3)N2C1=O | – | human, advanced solid tumours | intravenous, 0.6 mg weekly, CTCAE version 4.0 | patients with any TRAE | 0%
N[C@@H]1c2ccccc2OC12CCN(c1cnc3c(N4CCCc5ncccc54)n[nH]c3n1)CC2 | item: Fatigue | human advanced or metastatic solid tumours | oral, 60 mg once daily, phase Ia pooled cohort | patients with treatment-related adverse event | 24%
C=CC(=O)Nc1cc(Nc2nccc(Nc3cc(Cl)c(F)cc3C(C)(C)O)n2)c(OC)cc1N1CC[C@@H](N(C)C)C1 | – | human | oral, dose not given, phase I clinical | patients with adverse event Anaemia | 35.3%
Cn1nc(NS(C)(=O)=O)c2c(Cl)ccc(-n3c([C@H](Cc4cc(F)cc(F)c4)NC(=O)Cn4nc(C(F)F)c5c4C(F)(F)[C@@H]4C[C@H]54)nc4nc(OCCC(F)(F)F)ccc4c3=O)c21 | item: LDL cholesterol grade 3 increase | human | 200 mg once daily, powder in bottle | patients with laboratory abnormality | 0%
COc1ncnn2ccc(-c3cnc4nc(C)n(Cc5nnc([C@@H](C)F)o5)c4c3)c12 | – | human | oral, dose not given, grade 2 | patients with stomatitis | 0%
C[C@]1(O)C[C@@](N)(c2ccc(-c3nc4n(c3-c3ccccc3)COc3ccncc3-4)cc2)C1 | – | human, advanced or metastatic solid tumours | once daily, dose escalation total | patients with grade ≥3 Anemia TEAE | 11.1%
C[C@@H]1OC(=O)NN=C1c1ccc(-c2ccc(F)cc2)c(C(F)(F)F)c1 | phase I trial, item: alkaline phosphatase increased | human patients | 5 mg load, 0.25 mg daily, all grades | patients with TEAE | 0%
Cc1cn([C@H]2O[C@@H](CO[P@@](=O)(N[C@@H](C)C(=O)OC(C)C)Oc3ccccc3)[C@H](O)[C@H]2F)c(=O)[nH]c1=O | item: Thrombocytosis | human | 10 mg | patients with TEAE | 17%
CN(C)C(=O)c1cc2cnc(Nc3ccc(N4CCNCC4)cn3)nc2n1C1CCCC1 | item: Pulmonary toxicity, AESI | human, HR+/HER2− advanced breast cancer | oral, dose not given, all grades, CTCAE v4.03 | patients with adverse event | 26.6%

Excerpt of the above:
SMILES | test | test system | conditions | measurement | value
N[C@@H]1c2ccccc2OC12CCN(c1cnc3c(N4CCCc5ncccc54)n[nH]c3n1)CC2 | item: Fatigue | human advanced or metastatic solid tumours | oral, 60 mg once daily, phase Ia pooled cohort | patients with treatment-related adverse event | 24%
